Results pooled from the literature.
± marks the error that the study gave.

CO[C@@H]1[C@H](O)[C@@H](COP(=O)(O)OP(=O)([S-])OP(=O)(S)OP(=O)(O)OC[C@H]2O[C@@H](n3cnc4c(=O)[nH]c(N)nc43)[C@H](O)[C@@H]2O)O[C@H]1n1c[n+](C)c2c(O)nc(N)nc21 (mixture of isomers): “binding free energy” -11.67 ± 0.08 kcal/mol (eIF4E (mouse); fluorescence titration; 20 °C).
CCOC(=O)[C@]1(c2ccccc2)N=C(c2ccc(OC)cc2)N(Cc2ccccc2)[C@@H]1c1ccc(NCc2ccccc2)cc1 has an IC50 of 10 µM (GFP-ODC; AlphaLISA; HEK293T stably expressing GFP-ODC).
CC1OC(OC2C(c3c(O)cc(O)c4c(=O)cc(-c5ccc(O)cc5)oc34)OC(CO)C(O)C2O)C(O)C(O)C1O (stereo not drawn) gave an IC50 of 40.2 ± 0.45 µM (arginine-methylglyoxal glycation; AGE formation, inhibitor).
For COc1cccc(/C=C/C(=O)c2cccc3ccccc23)c1OC, the inhibition was 89% (TNF-alpha (mouse); ELISA; RAW264.7; 10 µM, 2 h pretreatment, added: LPS 0.5 µg/mL for 22 h; relative to: LPS alone).
For O=C([O-])CN1CCN(CC(=O)[O-])CCN(C(CCC(=O)NC(Cc2c[nH]c3ccc(O)cc23)C(=O)NCCc2c[nH]c3ccc(O)cc23)C(=O)O)CCN(CC(=O)[O-])CC1.[Gd+3] (stereo not drawn), “R1 ratio change” read over 3 fold (myeloperoxidase; 0.5 mM, 3 h, 40 °C, added: glucose oxidase and glucose; relative to: MPO-Gd).
With Nc1nc2ccc(OC(F)(F)Cl)cc2s1 the inhibition was over 90% (MeAIB/glutamine transporter, rat; MeAIB uptake; hippocampal neurons, rat; 20 µM, added: [14C]MeAIB 23.4 µM).
With Cc1c(C)c(C)[c-](C)c1C.[C-]#[O+].[C-]#[O+].[C-]#[O+].[Cl-].[Cl-].[Cl-].[Ir+3].[Re+].c1cnc(-c2ncccn2)nc1 the Stern-Volmer constant was 18000 M⁻¹ (calf thymus DNA; ethidium bromide displacement).
O=S([O-])c1ccccc1N=Cc1ccccc1[O-].[Cu+2].c1c[nH]cn1 has a caspase-3 activity of about 1.5 fold (caspase-3 (human); HeLa; 2 µM, 24 h; relative to: untreated).
For O=C(C1CCCCC1)N1CC(=O)N2CCc3ccccc3[C@@H]2C1, the selectivity ratio was about 330 fold (flatworm TRPM_PZQ channel orthologs; relative to: most over least sensitive ortholog).
The delta Tm of CCN(CC)CCCC(C)Nc1cc[n+]([Ru-]([Cl])[Cl])c2cc(Cl)ccc12.c1ccccc1 (stereo not drawn) is reported as 4.4 °C (calf thymus DNA; thermal denaturation; 0.5 equivalents per DNA, 1 h, pH 7.39, 25 °C, 25 mM NaClO4).
With Cc1cc(N)c2cc(NC(=O)COCC(=O)Nc3ccc4nc(C)cc(N)c4c3)ccc2n1 the IC50 was 2 ± 0.03 µM (unfractionated heparin; heparin neutralization, factor Xa chromogenic; added: heparin 0.2 IU/mL, antithrombin III).
For CCN(CC)CCCC(C)NCc1nn2c(-c3ccccc3)nnc2s1 (stereo not drawn), protein level read “decreased” (c-Myc (human); western blot; MV4-11; 12.5 µM).
CCc1nc(-c2ccc(-c3ccc(CCC(N)(CO)COP(=O)(O)O)cc3)cc2)co1 (stereo not drawn) has a receptor internalization of 59% (human S1P1 receptor; flow cytometry; CHO expressing human S1P1; 500 nM, 1 h).
COc1ccccc1CCN1CNc2c(c(=O)[nH]c(=O)n2-c2cccc(Cl)c2C)C1: inhibition “decreased” (P2X7 (giant panda) Y298A; ion current, whole-cell patch clamp; 1 µM; relative to: wild type).
With O=Cc1c(O)ccc2ccccc12 the mRNA level was about 6.5 fold (hCMEC/D3; qPCR, item: KLF4; 50 µM, 12 h; relative to: control).
For CC(=O)OC[C@H]1O[C@@H](Sc2sc(C(=O)c3ccc(Br)cc3)c(N)c2-c2nc3ccccc3s2)[C@H](OC(C)=O)[C@@H](OC(C)=O)[C@H]1OC(C)=O, the growth was 88.4% (NCI-H23; SRB; 10 µM, 48 h; relative to: untreated).
Cc1sc2ncn(CC(=O)N3CCCC3)c(=O)c2c1-c1cccc(Br)c1 — result for “total current increase”: 3.17 fold (NMDA receptor mouse; patch clamp; cultured cortical neurons; 50 µM; relative to: vehicle).
CC(=O)[C@@]1(O)CC[C@H]2[C@@H]3CCC4=CC(=O)CC[C@]4(C)[C@H]3CC[C@@]21C — result for BRET signal: “increased” (GPR126 ECL1 S2 and ECL3 S6; conformational change).
[64Cu+2].c1ccc(CNCc2ccc(CN3CCCN4CCNCCCN(CC4)CC3)cc2)nc1 gave a tissue uptake of 1.27 ± 0.28 %ID/g (CXCR4; NOD/SCID mouse, U87 and U87-stb-CXCR4 xenografts, pancreas; iv, 90 min, ex vivo).
COC(=O)c1cnc(-c2cnccn2)cc1C(=O)OC.COC(=O)c1cnc(-c2cnccn2)cc1C(=O)OC.O.O.O.O=S(=O)([O-])C(F)(F)F.O=S(=O)([O-])C(F)(F)F.[Cu+2] has a binding constant of 42.2 M⁻¹ (calf thymus DNA; ethidium bromide displacement).
With CC(C)=CCC/C(C)=C/Cc1c(CCC(=O)c2ccc(O)cc2O)ccc(O)c1O the IC50 was 10.8 ± 0.65 µM (mitochondrial complex II-III (bovine heart); succinate-cytochrome c reductase, inhibitor).
With CC[C@H](C)[C@@H]1NC(=O)[C@H](Cc2ccc(O)cc2)NC(=O)[C@@H](N)CSSC[C@@H](C(=O)N2CCC[C@H]2C(=O)N2CCC[C@H]2C(=O)NCC(N)=O)NC(=O)[C@H](CC(N)=O)NC(=O)[C@H](CCC(N)=O)NC1=O the EC50 was 0.00339 µM (vasopressin V1a receptor, Callithrix jacchus; calcium mobilization, agonist, FLIPR Fluo-3; CHO transfected with receptor).
The selectivity ratio of CCCn1c(=O)c2[nH]c(-c3ccc(N(C)C(=O)c4ccc(C(F)(F)F)nc4)nc3)nc2n(CCC)c1=O is reported as over 400 fold (human adenosine A2B receptor; radioligand displacement; HEK293 membranes; relative to: A2B over other adenosine receptors).
OB1c2sccc2C=NN1Cc1ccccc1: inhibition “inactive” (human pancreatic chymotrypsin; enzyme activity, inhibitor; 100 µM).
For Cc1cc(N)c2cc(NC(=O)CCC(=O)Nc3ccc4nc(C)cc(N)c4c3)ccc2n1, the IC50 was 4.6 ± 0.07 µM (unfractionated heparin; heparin neutralization, factor Xa chromogenic; added: heparin 0.2 IU/mL, antithrombin III).
COc1cc(CNC(=O)C[C@H](C)CCC=C(C)C)ccc1OCc1cn(-c2ccc(F)cc2)nn1 has a growth percent of 85% (SK-OV-3 ovarian cancer cells; SRB; 10 µM, 48 h).
The maximal release of CC[C@H](C)[C@H](NC(=O)[C@H](CCCNC(=N)N)NC(=O)[C@H](CCC(N)=O)NC(=O)[C@@H](NC(=O)[C@@H](NC(=O)[C@H](CCCNC(=N)N)NC(=O)[C@H](CCCCN)NC(=O)[C@@H](N)Cc1ccccc1)[C@@H](C)CC)C(C)C)C(=O)N[C@@H](CCCCN)C(=O)N[C@@H](CC(=O)O)C(=O)N[C@@H](Cc1ccccc1)C(=O)N[C@@H](CC(C)C)C(=O)N[C@@H](CCCNC(=N)N)C(=O)O is reported as 70% (MRGPRX2 human; degranulation, agonist, item: β-hexosaminidase; LAD2; relative to: total).
Cc1cn(-c2ccc(-c3cc(C)c(N[C@@H](C)c4ccc(F)cc4)nn3)nc2O[11CH3])cn1: “brain uptake ratio” 2.3 fold (presenilin-1 gamma-secretase; PET-CT; female 5XFAD mice, 10 weeks, whole brain; intravenous; relative to: 5XFAD over wild type).
Cc1cccc(C)c1NC(=O)[C@H]1CCCN1Cc1ccccc1: “shift of steady-state inactivation” 14.4 ± 2.7 mV (Nav1.4 sodium channel; vaseline gap voltage clamp; Pelophylax lessonae skeletal muscle; 30 µM).
With Nc1nc2ccc3ccccc3c2s1 the inhibition was over 90% (MeAIB/glutamine transporter, rat; MeAIB uptake; hippocampal neurons, rat; 20 µM, added: [14C]MeAIB 23.4 µM).
With COc1cc(CNC(=O)C[C@H](C)CCC=C(C)C)ccc1OCc1cn(-c2ccccc2Cl)nn1 the growth percent was 93.1% (TK-10; SRB; 10 µM, 48 h).
Cc1ccc(C(C)C)cc1.[C-]#[O+].[C-]#[O+].[C-]#[O+].[Cl-].[Cl-].[Cl-].[Re+].[Ru+2].c1cnc(-c2ncccn2)nc1 gave a Stern-Volmer constant of 14000 M⁻¹ (calf thymus DNA; ethidium bromide displacement).
CC(C)[C@H](NC(=O)[C@@H]1CCCN1C(=O)[C@H](C)NC(=O)[C@H](CO)NC(=O)[C@H](C)NC(=O)[C@H](CC(N)=O)NC(=O)[C@H](CCC(=O)O)NC(=O)[C@@H](NC(=O)[C@H](CC(=O)O)NC(=O)[C@H](CCCCN)NC(=O)[C@H](C)NC(=O)[C@H](CCC(N)=O)NC(=O)[C@H](Cc1ccccc1)NC(=O)[C@H](C)NC(=O)[C@H](Cc1c[nH]c2ccccc12)NC(=O)[C@H](C)NC(=O)[C@@H](NC(=O)CN)C(C)C)C(C)C)C(=O)O — result for “time to complete macrocyclization”: about 30 min (PCY1 peptide cyclase, Saponaria vaccaria; substrate, LC-MS; 200 µM, pH 8.5, 30 °C, added: PCY1 3.6 µM).
For [64Cu+2].c1cnc(CNCc2ccc(CN3CCCN4CCNCCCN(CC4)CC3)cc2)nc1, the tissue uptake was 23.1 ± 1.34 %ID/g (CXCR4 (Homo sapiens, UniProt P61073); NOD/SCID mice, U87 xenografts, U87-stb-CXCR4 tumour; 240 min post-injection).
O=c1[nH]sc2ccccc12 — result for inhibition: “no effect” (HDAC isoforms other than HDAC6; concentration not given).
Cc1ccc(C(C)C)cc1.[Cl-].[Cl][Ru+].[Ru+].c1ccc(-c2cn(CCCCOc3ccccc3-c3nc4ccccc4s3)nn2)nc1 — result for “change in molar absorptivity”: 22.5% (calf thymus DNA; UV absorption titration; concentration not given).

Some of these lines once more:
The maximal release of CC[C@H](C)[C@H](NC(=O)[C@H](CCCNC(=N)N)NC(=O)[C@H](CCC(N)=O)NC(=O)[C@@H](NC(=O)[C@@H](NC(=O)[C@H](CCCNC(=N)N)NC(=O)[C@H](CCCCN)NC(=O)[C@@H](N)Cc1ccccc1)[C@@H](C)CC)C(C)C)C(=O)N[C@@H](CCCCN)C(=O)N[C@@H](CC(=O)O)C(=O)N[C@@H](Cc1ccccc1)C(=O)N[C@@H](CC(C)C)C(=O)N[C@@H](CCCNC(=N)N)C(=O)O is reported as 70% (MRGPRX2 human; degranulation, agonist, item: β-hexosaminidase; LAD2; relative to: total).
For [64Cu+2].c1cnc(CNCc2ccc(CN3CCCN4CCNCCCN(CC4)CC3)cc2)nc1, the tissue uptake was 23.1 ± 1.34 %ID/g (CXCR4 (Homo sapiens, UniProt P61073); NOD/SCID mice, U87 xenografts, U87-stb-CXCR4 tumour; 240 min post-injection).
With COc1cc(CNC(=O)C[C@H](C)CCC=C(C)C)ccc1OCc1cn(-c2ccccc2Cl)nn1 the growth percent was 93.1% (TK-10; SRB; 10 µM, 48 h).
CC(=O)[C@@]1(O)CC[C@H]2[C@@H]3CCC4=CC(=O)CC[C@]4(C)[C@H]3CC[C@@]21C — result for BRET signal: “increased” (GPR126 ECL1 S2 and ECL3 S6; conformational change).
